Assay results collected from several papers.
Every numbered part comes from another study and shows a few of its results, in no order.

Series 1
Target: Fragile X messenger ribonucleoprotein 1, C-terminal low-complexity region (Fmr1, Mus musculus, UniProt P35922)
Method: RNA Bind-n-Seq
Molecule type: RNA
Matrix: in vitro
Concentration: 200 nM
Setting: whole 134-nt RNA, ends assumed
Together with: 150 mM LiCl
Reference: input library
Direction: higher = stronger binding
Library: 7-deaza-guanosine replaces G
| Strand | log2 enrichment |
| --- | --- |
| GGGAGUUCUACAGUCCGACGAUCGUCCUGUGCUACACAUCGUAUGUACCGAAUCGGAAAAAAAGGUUUUUUUGGAAAAAGGAAAGUAUUAUGUUACGCCGUUCGGAUCUGCACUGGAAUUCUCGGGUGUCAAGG | -2.84 |
| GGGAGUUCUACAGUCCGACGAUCAGUCCUGUGCUACACAUCGUAUGUACCGAAUCGGGAGGGUUUUUGGGUUUUUUUGGGAAAGUAUUAUGUUACGCCGUUCGGAUCUGCACUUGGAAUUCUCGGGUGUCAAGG | -1.64 |
| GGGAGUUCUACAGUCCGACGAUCUGGGAGGUGGAUUUUGUUUAUUUUUUUAGCUCAUUUCCGGGGGUGGGAAUUUUUUUUUAAUAUGUGUCAUGAAUAAAGUUGUUUUUGAAAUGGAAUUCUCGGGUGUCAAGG | 0.932 |
| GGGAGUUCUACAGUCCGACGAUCGUCCUGUGCUACACAUCGUAUGUACCGAAUCGGGGAAAAAAAGGGGAAAGGGGAGGGGAAAGUAUUAUGUUACGCCGUUCGGAUCUGCACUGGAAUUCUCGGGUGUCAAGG | 1.02 |
| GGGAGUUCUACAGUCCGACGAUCUAACUUUAGAGGAGGAUCUAAUGGAUAUGGCAGUGGACGUGGAUUUGGGGAUGGCUAUAAUGGGUAUGGAGGAGGACCUGGAGGUGGCAAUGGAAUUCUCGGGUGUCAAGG | 0.45 |
| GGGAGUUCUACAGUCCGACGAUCUAACUUUAGAGGAGGAUCUGAUGGAUAUGGCAGUGGACGUGGAUUUGGGGAUAGCUAUAAUGGGUAUGGAGGAGGACCUGGAGGUGGCAAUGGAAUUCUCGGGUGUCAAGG | 0.401 |
| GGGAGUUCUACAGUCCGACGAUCUCCUGUGCUACACAUCGUAUGUACCGAAUCGGGAAAAAAAGGGAAAAAAAGGGAAAGGGAAAGUAUUAUGUUACGCCGUUCGGAUCUGCAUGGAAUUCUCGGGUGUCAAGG | 0.38 |
| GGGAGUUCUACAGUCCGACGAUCUCCUGUGCUACACAUCGUAUGUACCGAAUCGGAAAAAAGGGAAAAAAGGGAAAAAAGGGGAAAGUAUUAUGUUACGCCGUUCGGAUCUGCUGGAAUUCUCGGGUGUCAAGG | -0.82 |
| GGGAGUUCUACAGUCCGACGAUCUCAAGUCCUGUGCUACACAUCGUAUGUACCGAAUCGGGGAGGGGUGGGGUGGGGAAAGUAUUAUGUUACGCCGUUCGGAUCUGCACUUCCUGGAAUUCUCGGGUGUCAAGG | -0.369 |
| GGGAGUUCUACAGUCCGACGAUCUGGGAGGUGGAUUUUGUUUAUUUUUUUAGCACAUUUCCAGGGGUGGGAAUUUUUUUUUAAUAUGUGUCAUGAAUAAAGUUGUUUUUGAAAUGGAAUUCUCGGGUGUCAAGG | -0.059 |
| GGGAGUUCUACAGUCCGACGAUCUCAAGUCCUGUGCUACACAUCGUAUGUACCGAAUCGGGGAAGGGGAAGGGAAGGGAAAGUAUUAUGUUACGCCGUUCGGAUCUGCACUUCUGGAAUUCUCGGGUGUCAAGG | -0.709 |

Series 2
Target: Histone acetyltransferase KAT6A, both winged helices, GST fusion (KAT6A, Homo sapiens, UniProt Q92794, residues 1-181)
Method: protein binding microarray
Molecule type: double-stranded DNA, one strand shown
Matrix: in vitro
Concentration: not given
Setting: 8-mer, flanks averaged, mean of 2 arrays, mostly near background
Reference: not given
Direction: higher = stronger binding
Construct (chain): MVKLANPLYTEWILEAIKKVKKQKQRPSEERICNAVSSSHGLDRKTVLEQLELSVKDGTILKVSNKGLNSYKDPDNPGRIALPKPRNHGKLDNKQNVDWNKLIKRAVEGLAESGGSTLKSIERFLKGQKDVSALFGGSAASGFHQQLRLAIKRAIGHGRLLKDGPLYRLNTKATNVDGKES
| Strand | E-score |
| --- | --- |
| ACACAGGA | -0.102 |
| CAGATACG | 0.0433 |
| GAGATCGC | 0.0199 |
| AAGTCTGC | -0.0605 |
| AAGTGACA | -0.013 |
| GAACAGTC | -0.0341 |
| CCGACGTC | 0.165 |
| GATTCGCC | 0.0276 |
| CCATGAAG | -0.124 |
| GACCGGCC | 0.122 |
| CCACATAC | -0.152 |
| AGACCCCC | 0.0683 |
| GCGCGGGA | 0.333 |
| GCGCAAAC | 0.197 |
| GACTTTAC | 0.0108 |
| CATTCAAA | -0.0622 |
| CCACCCTA | -0.201 |
| ACTGGAAT | -0.212 |
| AATGATTC | -0.106 |
| ACGCACGG | 0.294 |

Series 3
Target: RNA binding protein fox-1 homolog 2, RRM domain, GST-SBP tag (RBFOX2, Homo sapiens, UniProt O43251-10, residues 100-194)
Method: RNA Bind-n-Seq
Molecule type: RNA
Matrix: in vitro
Concentration: 365 nM
Setting: natural RNA segment, single round, ends assumed
Reference: no-protein control
Direction: higher = stronger binding
Construct (chain): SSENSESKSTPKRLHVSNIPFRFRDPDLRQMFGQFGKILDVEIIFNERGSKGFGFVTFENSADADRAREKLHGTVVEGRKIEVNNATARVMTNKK
| Strand | RBNS enrichment (R) |
| --- | --- |
| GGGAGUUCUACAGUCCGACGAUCCCAGAAUCCUGACUCCAUUUGCAGACAGGAAUAUAUAUGUGUUGAGCCUGAUUUUUUUUCUGGUGUGUGUAAAAUACUUCCUAGGAAUACACUGGGCACUUUUGGAAAUAUGGAAUUCUCGGGUGCCAA | 0.521 |
| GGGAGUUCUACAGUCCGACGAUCAGUUCAAAGGAGUCUGCAAUUGGAACUGCUGAUUUUCGGUGGGUUUUGUAGUUGAUUUUUCCAAGAGCGUCGAAGACUCUCUUUCUCUUGGUUCACCUUGCCUGUCGCUAUGGAAUUCUCGGGUGCCAA | 0.675 |
| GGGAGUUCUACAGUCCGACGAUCCUGUAGUUGGACCAAAAAAACAAAUGAGCCGUUGGACCAUUUGAGCAGUCAGUUUCUGGUCCUUAGAUGUAUUCUAAGCAGUGUAAGUGUCUGAUUGUACCCUGGUGGCAUGGAAUUCUCGGGUGCCAA | 0.844 |
| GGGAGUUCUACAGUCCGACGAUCUCUUUUGCCGUCUAGGCCCAGCCAGGCUUUUCUGACUAAAUAAGCAAUAAGAGGCUCUAAGCUGACUGAGUUGCAAGGACCCUUUCCGCCCUCCCUUGGAUCUCCAUGUUUGGAAUUCUCGGGUGCCAA | 0.23 |
| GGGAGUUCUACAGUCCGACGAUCAGCGUCUUGCAGCUUUUUAUGGUGUUUAUCUAAUACACUUAAGCUGCAGUCCCAAAAUUAGGGGUCCUUCAGUCUUGGAGACUAUAAGGGAGCCUCUGCACCCAGGGAAAUGGAAUUCUCGGGUGCCAA | 0.229 |
| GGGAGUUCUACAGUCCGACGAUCAAACGGAGCAUGCGUGUAGCGAGCCUGCCUUGCUCUGCCUCUGCACGGACCGCUCCCUCUCUUCUUCAGGAGACUUUAUAAUUUACCUGAAGAGGUUUUCUUGAUAAUUUUGGAAUUCUCGGGUGCCAA | 0.542 |
| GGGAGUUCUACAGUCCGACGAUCUCUUCCCGGGAGCCCAGCGCAGCCCCCGGCUCUUACCCAGGACCCCGCCCCGUGCUGAGCCUUCUGCUGAGGUCCUUGCGUGGAGCACACUCAUUCCUCCAAGCCCUUGCUGGAAUUCUCGGGUGCCAA | 0.499 |
| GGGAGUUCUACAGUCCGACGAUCCCAGCCUGGUGCGGCUGGGAUCACACUUCAAGGAUGGACAGUGGUGUCUCUUUGGGAGAUGGUGUUCAAGUGGGAUACCUAAGUCUUCCCGUGGCUAGAUCCAGAGCAGAUGGAAUUCUCGGGUGCCAA | 0.451 |
| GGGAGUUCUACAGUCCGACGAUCAUAAGAAGAACGUUACACGGAAAUCACCAAAUAUUUUGCAACUUUAUUUCUUCUGACAUGGAGUGAACAUCAAUAGGAAUACUUUCAAAGAAAAUGAAAACACAGAAGCAUGGAAUUCUCGGGUGCCAA | 1.29 |
| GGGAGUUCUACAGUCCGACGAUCCAGAUUGACAGGGACUUUGCUGGUGUAGUCUUUUUAUAGGUUUUAUAAACCACUUGAGCCUAUAUCAGUCGUUUUAGUGUCUGACCUAAUAUUUGGAGCUAUCAGUGCUUUGGAAUUCUCGGGUGCCAA | 0.298 |
| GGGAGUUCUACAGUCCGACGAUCUGCCGCCUCAGCCUGGCGCAGCUGUCAGCCUUCUGAGCACCCAGCGAGGAGGGGCGGGGGCAGGGGCUGCAGCCCCCAGCGCUGCCUUUGCGGAUUCUGUUUUUGAGCCGUGGAAUUCUCGGGUGCCAA | 0.383 |
| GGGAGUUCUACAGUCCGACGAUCAGUUUUAUGAGACGGGUGUAAUAAUAUCUCCACCUGUGAUUUGGGGGUGGGACUCUUAUUUUGGGUAGCCAUUUAUUGACUUCACCUUUUUGCCAAGGACGUUUGUCUCAUGGAAUUCUCGGGUGCCAA | 0.299 |

Series 4
Target: PABPC1L2, full length, GST fusion (mouse, UniProt A0ABA7IW68)
Method: RNAcompete
Molecule type: RNA
Matrix: in vitro
Concentration: 20 nM
Setting: 7-mer, probes averaged, single round
Reference: mean of 7-mers
Direction: higher = stronger binding
Target sequence (chain): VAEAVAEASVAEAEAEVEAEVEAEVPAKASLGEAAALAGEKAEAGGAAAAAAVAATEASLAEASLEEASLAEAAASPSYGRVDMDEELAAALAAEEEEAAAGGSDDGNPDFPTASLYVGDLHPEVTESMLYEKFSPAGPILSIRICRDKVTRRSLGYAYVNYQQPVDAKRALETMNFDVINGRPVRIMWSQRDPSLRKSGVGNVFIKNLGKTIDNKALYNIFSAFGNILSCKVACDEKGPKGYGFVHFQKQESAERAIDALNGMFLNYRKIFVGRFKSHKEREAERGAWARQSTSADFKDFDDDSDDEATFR
| Strand | 7-mer Z-score |
| --- | --- |
| CGGGACG | -0.012 |
| UCUUAAG | -0.298 |
| CGAGGGA | 0.135 |
| AGCGCCG | -0.231 |
| AGCAUGG | -0.0554 |
| GGCAUUU | 0.131 |
| UUAAAGU | 0.432 |
| AGUUGCA | -0.155 |
| UGGGCGU | 0.108 |
| GCCGUCA | -0.224 |
| AUAGGCG | 0.318 |
| CCGUGUC | -0.481 |
| CUUAGUU | -0.229 |
| ACUUUUU | -0.0754 |
| GAAAGCU | 0.0225 |
| UGCCAUU | -0.338 |
| UGGGAGG | 0.225 |
| GGAUUCG | -0.195 |
| CUAAGGG | 0.149 |
| CUCCCGC | -0.356 |
| GUAUACU | -0.175 |

Excerpt of the above (series 1):
| Strand | log2 enrichment |
| --- | --- |
| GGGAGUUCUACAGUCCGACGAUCAGUCCUGUGCUACACAUCGUAUGUACCGAAUCGGGAGGGUUUUUGGGUUUUUUUGGGAAAGUAUUAUGUUACGCCGUUCGGAUCUGCACUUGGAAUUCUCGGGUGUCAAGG | -1.64 |
| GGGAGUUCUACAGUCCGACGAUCGUCCUGUGCUACACAUCGUAUGUACCGAAUCGGGGAAAAAAAGGGGAAAGGGGAGGGGAAAGUAUUAUGUUACGCCGUUCGGAUCUGCACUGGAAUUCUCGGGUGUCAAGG | 1.02 |
| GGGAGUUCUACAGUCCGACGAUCUGGGAGGUGGAUUUUGUUUAUUUUUUUAGCUCAUUUCCGGGGGUGGGAAUUUUUUUUUAAUAUGUGUCAUGAAUAAAGUUGUUUUUGAAAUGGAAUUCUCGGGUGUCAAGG | 0.932 |
| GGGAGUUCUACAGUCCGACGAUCUCAAGUCCUGUGCUACACAUCGUAUGUACCGAAUCGGGGAGGGGUGGGGUGGGGAAAGUAUUAUGUUACGCCGUUCGGAUCUGCACUUCCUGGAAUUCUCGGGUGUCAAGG | -0.369 |
| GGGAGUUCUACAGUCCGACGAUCUAACUUUAGAGGAGGAUCUGAUGGAUAUGGCAGUGGACGUGGAUUUGGGGAUAGCUAUAAUGGGUAUGGAGGAGGACCUGGAGGUGGCAAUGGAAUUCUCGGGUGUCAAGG | 0.401 |
| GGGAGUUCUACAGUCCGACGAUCUGGGAGGUGGAUUUUGUUUAUUUUUUUAGCACAUUUCCAGGGGUGGGAAUUUUUUUUUAAUAUGUGUCAUGAAUAAAGUUGUUUUUGAAAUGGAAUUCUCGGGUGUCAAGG | -0.059 |
| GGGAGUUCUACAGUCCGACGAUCUCCUGUGCUACACAUCGUAUGUACCGAAUCGGGAAAAAAAGGGAAAAAAAGGGAAAGGGAAAGUAUUAUGUUACGCCGUUCGGAUCUGCAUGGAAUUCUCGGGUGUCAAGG | 0.38 |
| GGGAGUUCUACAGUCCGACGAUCUAACUUUAGAGGAGGAUCUAAUGGAUAUGGCAGUGGACGUGGAUUUGGGGAUGGCUAUAAUGGGUAUGGAGGAGGACCUGGAGGUGGCAAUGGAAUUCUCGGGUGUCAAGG | 0.45 |
| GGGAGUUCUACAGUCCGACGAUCUCAAGUCCUGUGCUACACAUCGUAUGUACCGAAUCGGGGAAGGGGAAGGGAAGGGAAAGUAUUAUGUUACGCCGUUCGGAUCUGCACUUCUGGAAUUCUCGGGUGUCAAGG | -0.709 |
